Literature values, collected from citations in different studies.
Each line is one published result; not all experiments were run side by side. ± marks the error that the study gave. Values after ≈ are worked out from the molar mass of the structure shown.

SMILES | target or system | assay | test system | conditions | scale | measurement | value
CC(=O)NCCCOc1cc(F)c(-c2c(Cl)nc3ncnn3c2N[C@@H](C)C(F)(F)F)c(F)c1 | HEK293 |  |  | 1 µM, 4 h, unit not given | reference: vehicle (DMSO) | acetylated α-tubulin level | 4.46 ± 0.68
O=C(Nc1ccccc1-c1ccc(Cl)c(Cl)c1)c1nccnc1C(F)(F)F | Blumeria graminis |  | barley |  |  | EC80 | 2 to 10 mg a.i./L
CNC(=O)c1ccccc1Oc1nc(Nc2cc(OC)c(OC)c(OC)c2)ncc1Br | AMPK |  |  | 1 µM |  | inhibition | 80%
O=C1c2ccccc2-c2c1c1ccccc1c(=O)n2C[C@@H](O)[C@@H](O)[C@H](O)CO | 60 cancer cell lines | cell growth |  | 10 µM |  | mean growth | 50.6%
C=CCC(=N)NCCC[C@H](N)C(=O)O | human nNOS |  |  |  | reference: human nNOS (cell lysate) over purified eNOS | selectivity ratio | 25 fold
O=C1NCCN1CC(O)Cn1c2ccc(F)cc2c2cc(F)ccc21 (stereo not shown) | DGC | cell viability |  |  |  | EC50 | 68.4 µM
C[C@H](Nc1c(-c2c(F)cc(OCCCN)cc2F)c(Cl)nc2ncnn12)C(F)(F)F | HEK293 |  |  | 1 µM, 4 h, unit not given | reference: vehicle (DMSO) | acetylated α-tubulin level | 17 ± 0.87
O=C(Nc1ccccc1-c1ccc(Br)cc1)c1nccnc1C(F)(F)F | Blumeria graminis |  | barley |  |  | EC80 | 0.5 to 2 mg a.i./L
C/C=C/CNC(=N)NCCCCCCCCN1CCCCCCCCNC(=N)NC1=O | Candida glabrata |  |  |  |  | MIC50 | 20 µg/mL (≈ 45.9 µM)
O=C(Nc1ccccc1-c1ccc(Cl)cc1)c1nccnc1C(F)(F)F | Botrytis cinerea |  | cucumber |  |  | EC80 | 2 to 10 mg a.i./L
CN(C)CCCOc1cc(F)c(-c2c(Cl)nc3ncnn3c2NCC2CCC2)c(F)c1 | HEK293 |  |  | 10 µM, 4 h, unit not given | reference: vehicle (DMSO) | acetylated α-tubulin level | 0.37 ± 0.12
O=C(Nc1ccccc1-c1ccc(F)cc1F)c1nccnc1C(F)(F)F | Blumeria graminis |  | barley |  |  | EC80 | 0.5 to 2 mg a.i./L
C[C@@H](Nc1c(-c2c(F)cc(C#CCCN(C)C)cc2F)c(Cl)nc2ncnn12)C(C)(C)C | HEK293 |  |  | 1 µM, 4 h, unit not given | reference: vehicle (DMSO) | total α-tubulin level | 0.94 ± 0.01
C[C@@](CCn1ccc(-c2ccccc2)cc1=O)(C(=O)NO)S(C)(=O)=O | Acinetobacter baumannii |  |  | 31 clinical isolates |  | MIC90 | 32 µg/mL (≈ 87.8 µM)
CN(C)CCCOc1cc(F)c(-c2c(Cl)nc3ncnn3c2NCC(C)(C)C)c(F)c1 | HEK293 |  |  | 10 µM, 4 h, unit not given | reference: vehicle (DMSO) | acetylated α-tubulin level | 0.52 ± 0.07
O=C(Nc1ccccc1-c1ccc(C(F)(F)F)c(F)c1)c1nccnc1C(F)(F)F | Blumeria graminis |  | barley |  |  | EC80 | 0.5 to 2 mg a.i./L
CNCCCOc1cc(F)c(-c2c(Cl)nc3ncnn3c2N[C@@H](C)C(F)(F)F)c(F)c1 | HEK293 |  |  | 10 µM, 4 h, unit not given | reference: vehicle (DMSO) | total α-tubulin level | 0.27 ± 0.01
O=C(Nc1ccccc1-c1cc(F)cc(F)c1)c1nccnc1C(F)(F)F | Puccinia triticina |  | wheat |  |  | EC80 | 2 to 10 mg a.i./L
CC1=CCC23OC2(C)CCC2C(CN(C)C)C(=O)OC2C13.Cl (stereo not shown) | sarcoma 37 tumour model |  | host not given | intraperitoneal and intratumoral, concentration not given |  | tumour growth inhibition | 86 to 90%

For quick reference, copied from above:
SMILES | target or system | assay | test system | conditions | scale | measurement | value
C/C=C/CNC(=N)NCCCCCCCCN1CCCCCCCCNC(=N)NC1=O | Candida glabrata |  |  |  |  | MIC50 | 20 µg/mL (≈ 45.9 µM)
O=C(Nc1ccccc1-c1ccc(Cl)cc1)c1nccnc1C(F)(F)F | Botrytis cinerea |  | cucumber |  |  | EC80 | 2 to 10 mg a.i./L
